Measured values gathered from unrelated publications.
Each line is one published result; not all experiments were run side by side.

| SMILES | target or system | assay | system | conditions | scale | endpoint | result |
| --- | --- | --- | --- | --- | --- | --- | --- |
| CCCCCCCCCC(=O)N[C@@H](Cc1c[nH]c2ccccc12)C(=O)N[C@H](CC(N)=O)C(=O)N[C@@H](CC(=O)O)C(=O)N[C@@H]1C(=O)NCC(=O)N[C@@H](CCCN)C(=O)N[C@@H](CC(=O)O)C(=O)N[C@H](C)C(=O)N[C@@H](CC(=O)O)C(=O)NCC(=O)N[C@H](CO)C(=O)N[C@@H]([C@H](C)CC(=O)O)C(=O)N[C@@H](CC(=O)c2ccccc2N)C(=O)O[C@@H]1C | Staphylococcus aureus | – | SH1000 | added: phosphatidylglycerol, molar ratio 1 | – | MIC | 2 µg/mL |
| C[C@H](NC(=O)CO/N=c1\cc2n(-c3ccc(Cl)cc3)c3ccccc3nc-2cc1Nc1ccc(Cl)cc1)C(=O)OC(C)(C)C | Mycobacterium avium | bacterial growth | clinical isolate | – | – | MIC | > 30 µM |
| N=C(N)c1ccc(OCc2cccc(COc3ccc(C(=N)N)cc3)c2)cc1 | Escherichia coli | – | W3110 | in combination, checkerboard, added: rifampicin | – | MIC | 25 µg/mL |
| CC(=O)NC[C@H]1CN(c2ccc(N3CCOCC3)c(F)c2)C(=O)O1 | Bifidobacterium longum | – | HM-846 | – | – | MIC | < 2.96 µM |
| N=C(N)c1ccc(OCc2ccccc2COc2ccc(C(=N)N)cc2)cc1 | Escherichia coli | – | mcr-1 polymyxin-resistant | 20 h, compound alone | – | MIC | > 200 µg/mL |
| O=C(O)c1cn(C2CC2)c2cc(N3CCNCC3)c(F)cc2c1=O | Shigella flexneri | broth dilution | CGMCC 1.187 | – | – | MIC | 0.03 µM |
| N=C(N)c1ccc(OCc2ccc(-c3ccccc3)cc2COc2ccc(C(=N)N)cc2)cc1 | Escherichia coli | – | 552100 | compound alone | – | MIC | 200 µg/mL |
| Cc1c(CN(C)C(=O)/C=C/c2cnc3c(c2)CCC(=O)N3)oc2ccccc12 | Escherichia coli | broth microdilution | AR-0543 | – | – | MIC | > 32 µg/mL |
| Cc1ccc(CCC(=O)Nc2nnc(S(N)(=O)=O)s2)cc1 | Bifidobacterium longum | – | HM-848 | – | – | MIC | > 784 µM |
| CCCCCCC#Cc1cncc(-c2nnc(SCc3ccc([N+](=O)[O-])cc3)n2C)c1 | Mycobacterium avium | – | – | – | no activity below value | MIC | ≥ 200 µM |
| CC1(C)S[C@@H]2[C@H](NC(=O)[C@H](N)c3ccccc3)C(=O)N2[C@H]1C(=O)O | Pseudomonas aeruginosa | – | clinical isolate RKI-No_484/15 | – | – | MIC | > 16 µg/mL |
| CCCCCCC#Cc1cncc(-c2nnc(SCc3ccc(C#N)cc3)n2C)c1 | Mycobacterium avium | – | – | – | no activity below value | MIC | ≥ 200 µM |
| CC1(C)SC2C(NC(=O)C(NC(=O)C3=C(O)CN(c4ccccc4)C3=O)c3ccccc3)C(=O)N2C1C(=O)O (stereo not drawn) | Escherichia coli | broth microdilution | BW25113 wild type | 18 h | – | MIC | 100 µg/mL |
| OC(Cn1cncn1)(Cn1cncn1)c1ccc(F)cc1F | Paecilomyces variotii | – | MYA-3630 | – | – | MIC | 8 µg/mL |
| CCOC(=O)CCNc1cc(N2CCc3ccccc3CC2)nc(-c2cccnc2)n1 | OCI-Ly1 | – | – | 0.5 µM, 120 h | – | viability | 99% |
| C[C@H]1COc2c(N3CCN(C)CC3)c(F)cc3c(=O)c(C(=O)O)cn1c23 | Shigella flexneri | agar dilution | ATCC 12022 susceptible | – | – | MIC | 0.06 µg/mL |
| O=C(c1ccc(C(=O)N2CCC(N3CCCC3)CC2)c(Nc2ccccc2)c1)N1CCC(N2CCCC2)CC1 | OCI-Ly1 | – | – | 0.5 µM, 120 h | – | viability | 159% |
| O=C(CO/N=c1\cc2n(-c3ccc(Cl)cc3)c3ccccc3nc-2cc1Nc1ccc(Cl)cc1)NCc1ccc(C(F)(F)F)cc1 | Mycobacterium avium | bacterial growth | clinical isolate | – | – | MIC | > 30 µM |
